{"data": "Published values from different studies", "note": "Each numbered part is a random draw from the data of one study; scales do not carry over between parts."}
{"data": "Block 1", "target": "RNA binding protein fox-1 homolog 2, RRM domain, GST-SBP tag (RBFOX2, Homo sapiens, UniProt O43251-10, residues 100-194)", "method": "RNA Bind-n-Seq", "molecule type": "RNA", "sample": "in vitro", "tested at": "365 nM", "notes": "natural RNA segment, single round, ends assumed", "baseline": "no-protein control", "direction": "higher = stronger binding", "Construct (chain)": "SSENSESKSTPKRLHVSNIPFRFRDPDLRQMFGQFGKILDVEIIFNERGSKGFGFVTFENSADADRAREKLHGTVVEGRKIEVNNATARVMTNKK"}
{"Strand": "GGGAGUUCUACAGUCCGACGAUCUUGUAAGGUGAAUUUCAAAGGGAGGGUUUUAGCUUAGGUAGUUAUUUUCUACCUAACUUUUCAAGUAGGAGCCUCUGCCUUUAGUCAGUAGUCUUUGAAGCAAGUAUCCUUGGAAUUCUCGGGUGCCAA", "RBNS enrichment (R)": 0.434}
{"Strand": "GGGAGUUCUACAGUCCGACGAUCAGAUGGUGGAAUAGGUUUUAUCACAUCUCUUAUUUCUCUUUUCCCCUUACUCUCUACCAUUUCCUUUAUGUGGGGAAACAUUUUAAGGUAAUAAAUAGGUUACUUACCAUUGGAAUUCUCGGGUGCCAA", "RBNS enrichment (R)": 0.641}
{"Strand": "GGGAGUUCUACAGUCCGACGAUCCAACCUGACCUCCGACUGUCAGUUUCCCUUGACACCAUCUUCAUAGAAAUACCUGACUCCUGUACCACAGUCCAGUUUGUCCCAGUAGCAGGGACACCAAGGCCAAUGGGUGGAAUUCUCGGGUGCCAA", "RBNS enrichment (R)": 0.275}
{"Strand": "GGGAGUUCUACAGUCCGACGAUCCAAAACCUGGAGCAAUUUAAAUAGGCUAAAUGGUUUUGAUUAAAUCUUGAGCUCCGAGUUGGAAGGAGAAAAUGAGAAGUUAACCCCUUGAGCCAUGUGGUCUCUUUACAUGGAAUUCUCGGGUGCCAA", "RBNS enrichment (R)": 0.508}
{"Strand": "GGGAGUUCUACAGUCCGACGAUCGAGACCUAUAAAUCCAACCAGUUACCCUGCAAGUCAGCCCCAUCUGCUGUUCCUUGGUCUCUAAUCACCUGAGCUGGGUAAAGGGGAUUCUGGGAGUUGAGAGCUCUGCCUGGAAUUCUCGGGUGCCAA", "RBNS enrichment (R)": 0.493}
{"Strand": "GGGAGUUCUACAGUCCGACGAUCAUAGUGAAUGAGAAGUGGUAGUCAUUUGUAAGGAUAGCACACAUUGAAUUUGGAAUUUAUUUCUUCCAUGUUUUGAUCAAUUCUCUGUAACUUUUCUUGGCUUAUAAGGUUGGAAUUCUCGGGUGCCAA", "RBNS enrichment (R)": 1.05}
{"Strand": "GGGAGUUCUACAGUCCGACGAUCAAGGCCUGUUGAAGUCAAUGCUGUCUUGCCCCUUGCUGUUUCAGCAGGUUAGACUUUGGUCUUCACUGCUUAUAGCUGCAUUGGAGGCCAACGUAGCUGAUGCUCAGGGUUGGAAUUCUCGGGUGCCAA", "RBNS enrichment (R)": 0.906}
{"Strand": "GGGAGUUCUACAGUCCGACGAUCGGGCUCUAGAGAAAGCAGCUAGUGGUUUCUUUGUCUUGGAACAGGCAGGGUAAGGGUGGGCACAUUUAGGCCUCUUCUCCUCACACUGGCCCUGCCAUCAGCUUUUGGGGUGGAAUUCUCGGGUGCCAA", "RBNS enrichment (R)": 0.521}
{"Strand": "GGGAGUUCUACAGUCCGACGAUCUUAGCCCUCUGGUUUUCCAGCUCAACCUCUGAUAAAGUGGACUGAGAGCCACGCUGCUCAGUCUGUUUCGUCAGCCGACUCAGGUUAUUUUCAGGGAAGGCAUGGAGGCAUGGAAUUCUCGGGUGCCAA", "RBNS enrichment (R)": 0.665}
{"Strand": "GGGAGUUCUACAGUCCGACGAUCGUGGAACUAUUCAAGGGACGGAACUCCUCUGGAGACUCUGUUUAAACAUACUUUUCAGUUCCCGAGAGACCACCUAAGUAAGAUGACAUUUCUGACAGGCGGGUGCCAGUUGGAAUUCUCGGGUGCCAA", "RBNS enrichment (R)": 0.525}
{"Strand": "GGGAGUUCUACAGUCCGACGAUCAGUAUUGCACCGCGAAUGAUGAGUGUUUACUAUUUUACAGGAGUCAACAAGAUAAUUAAAUAUCUUGGUGUCUUGUUUCUAUUGUGUGGCUUUUUAAAAAUGACAAAUAUUGGAAUUCUCGGGUGCCAA", "RBNS enrichment (R)": 0.835}
{"Strand": "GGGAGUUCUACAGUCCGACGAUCAGACAUUUUUCCUGUUUUAGAAAAUAUAGCCCUUGUUUGGAUUACUGCUGUCUGAGCACUAGAAAUUUCUAAUGGAAAGAGGCCUCUGAAUGGCUAAGGGAACAUCUGGAUGGAAUUCUCGGGUGCCAA", "RBNS enrichment (R)": 0.305}
{"data": "Block 2", "target": "Interferon regulatory factor 5, full length, phosphomimetic (IRF5, Homo sapiens, UniProt Q13568-2, residues 1-514, S451D/S453D/S456D/S462D)", "method": "protein-binding microarray", "molecule type": "double-stranded DNA, one strand shown", "sample": "in vitro", "tested at": "940 nM top", "notes": "60-bp whole probe", "added": "salmon DNA 0.4 mg/ml", "baseline": "random background probes", "direction": "higher = stronger binding", "all sequences stand within": "GCCTAGCAC … GTCTTGATTCGCTTGACGCTGCTG"}
{"Strand": "GACGATATCAGTCTCTAGACGTGCTAG", "fitted relative affinity [z-score]": -0.0463}
{"Strand": "GAAGGTTTCCTTCTCCTGACGTGCTAG", "fitted relative affinity [z-score]": 1.28}
{"Strand": "GACGGACTGGGATTGGGGACGTGCTAG", "fitted relative affinity [z-score]": -0.0437}
{"Strand": "GATGATTTCAGTTCCGAGACGTGCTAG", "fitted relative affinity [z-score]": 0.974}
{"Strand": "TTAGGTCCCGGACTGGGTTAGTGCTAG", "fitted relative affinity [z-score]": -0.654}
{"Strand": "TTAGGACTGGGTTTAGGTTAGTGCTAG", "fitted relative affinity [z-score]": -0.166}
{"Strand": "TCAGTTTTCACTTTTCCACTGTGCTAG", "fitted relative affinity [z-score]": 2.71}
{"Strand": "TTAGATCTCAGTACCGATTAGTGCTAG", "fitted relative affinity [z-score]": 0.451}
{"Strand": "TCATGTATTTGTCCCTAACTGTGCTAG", "fitted relative affinity [z-score]": 1.11}
{"Strand": "TTAGATTTCAGTTTTGATTAGTGCTAG", "fitted relative affinity [z-score]": 1.74}
{"Strand": "GACGGTTTCGACTATCGGGCCGTGCTA", "fitted relative affinity [z-score]": 8.35}
{"Strand": "GACGGTCTCCTTACCCTGACGTGCTAG", "fitted relative affinity [z-score]": 0.274}
{"Strand": "TCAAAGATTCCTCTCACACTGTGCTAG", "fitted relative affinity [z-score]": 0.416}
{"Strand": "GACGGTTTCCCACTGCTGACGTGCTAG", "fitted relative affinity [z-score]": 0.842}
{"Strand": "GACGATATAGGGTATCGAGACGTGCTA", "fitted relative affinity [z-score]": 0.627}
{"data": "Block 3", "target": "Ras GTPase-activating protein-binding protein 1, full length (G3BP1, Homo sapiens, UniProt Q13283)", "method": "RNA Bind-n-Seq", "molecule type": "RNA", "sample": "in vitro", "tested at": "200 nM", "notes": "whole 134-nt RNA, ends assumed", "added": "150 mM LiCl", "baseline": "input library", "direction": "higher = stronger binding", "library": "7-deaza-guanosine replaces G", "sequence of UniProt Q13283 (whole entry, looked up)": "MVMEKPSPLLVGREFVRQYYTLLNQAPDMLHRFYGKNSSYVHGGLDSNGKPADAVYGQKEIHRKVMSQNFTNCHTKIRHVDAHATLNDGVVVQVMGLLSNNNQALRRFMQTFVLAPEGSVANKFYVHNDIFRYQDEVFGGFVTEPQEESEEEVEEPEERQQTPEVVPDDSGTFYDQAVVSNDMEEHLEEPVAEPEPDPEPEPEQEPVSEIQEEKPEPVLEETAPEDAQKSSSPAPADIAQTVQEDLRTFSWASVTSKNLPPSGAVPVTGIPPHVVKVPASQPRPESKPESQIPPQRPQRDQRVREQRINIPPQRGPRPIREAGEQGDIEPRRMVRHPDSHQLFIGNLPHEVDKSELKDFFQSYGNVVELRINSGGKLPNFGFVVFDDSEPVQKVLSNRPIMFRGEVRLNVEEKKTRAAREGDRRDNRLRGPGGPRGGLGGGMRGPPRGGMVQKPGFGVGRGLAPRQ"}
{"Strand": "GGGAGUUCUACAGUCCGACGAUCCCUCAAGUCCUGUGCUACACAUCGUAUGUACCGAAUCGGGGAAGGAAGGAAGGAAAGUAUUAUGUUACGCCGUUCGGAUCUGCACUUCCAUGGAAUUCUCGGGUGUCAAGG", "log2 enrichment": -1.05}
{"Strand": "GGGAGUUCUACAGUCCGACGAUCUCAAGUCCUGUGCUACACAUCGUAUGUACCGAAUCGGGGUUGGGUUGGGGUUGGAAAGUAUUAUGUUACGCCGUUCGGAUCUGCACUUCCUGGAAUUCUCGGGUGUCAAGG", "log2 enrichment": 0.128}
{"Strand": "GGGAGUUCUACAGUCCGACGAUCUCAAGUCCUGUGCUACACAUCGUAUGUACCGAAUCGGGCCGGGCCGGGGCCGGGAAAGUAUUAUGUUACGCCGUUCGGAUCUGCACUUCCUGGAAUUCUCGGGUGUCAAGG", "log2 enrichment": 0.225}
{"Strand": "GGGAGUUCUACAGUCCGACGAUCAGUCCUGUGCUACACAUCGUAUGUACCGAAUCGGAAAAAAAGGAAAAAAAGGUUUGGAAAGUAUUAUGUUACGCCGUUCGGAUCUGCACUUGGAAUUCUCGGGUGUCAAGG", "log2 enrichment": -3.42}
{"Strand": "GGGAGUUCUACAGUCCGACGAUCCAAGUCCUGUGCUACACAUCGUAUGUACCGAAUCGGGAGGGUUUUUUUGGGUGGGAAAGUAUUAUGUUACGCCGUUCGGAUCUGCACUUCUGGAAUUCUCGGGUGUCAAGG", "log2 enrichment": 0.74}
{"Strand": "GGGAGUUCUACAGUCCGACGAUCCAAGUCCUGUGCUACACAUCGUAUGUACCGAAUCAAAUUUAAAUUUAAAUUUAAAAAAGUAUUAUGUUACGCCGUUCGGAUCUGCACUUCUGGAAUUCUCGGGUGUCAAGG", "log2 enrichment": -1.79}
{"Strand": "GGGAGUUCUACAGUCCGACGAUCACCAUGCAGGUGGGCAUCUUUGGGAAGUGGGGCAAGGGGGGGAUAGGGAGGGGGGUAACACUUUGGGAACAGGUGGUCCCUGGUCGUUUCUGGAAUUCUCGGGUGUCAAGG", "log2 enrichment": 0.302}
{"Strand": "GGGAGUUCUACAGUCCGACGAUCUAACUCUAGAGGAGGAUCUGAUGGAUAUGGCAGUGGACGUGGAUUUGGGGAUGGCUAUAAUGGGUAUGGAGGAGGACCUGGAGGUGGCAAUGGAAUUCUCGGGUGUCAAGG", "log2 enrichment": -0.114}
{"Strand": "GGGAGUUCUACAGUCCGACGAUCGCAGGAAGUAAAAACAAAUGGAAAUGCUUCGGAUAGUGGCAGGGGUGGGGGUUGCUAAGGAAAGGGUGGGAUCGGAGUGGGUAAAGAGUUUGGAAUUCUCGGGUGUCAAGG", "log2 enrichment": -0.172}
{"Strand": "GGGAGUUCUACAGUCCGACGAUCUGGGAGGUAGAUUUUGUUUAUUUUUUUAGCUCAUUUCCAGGGGUGGGAAUUUUUUUUUAAUAUGUGUCAUGAAUAAAGUUGUUUUUGAAAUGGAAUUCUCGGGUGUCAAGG", "log2 enrichment": 0.539}
{"Strand": "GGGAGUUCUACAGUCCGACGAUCUCCUGUGCUACACAUCGUAUGUACCGAAUCGGGUUUUUUGGUUUUUUGGGGUUUUUUGGAAAGUAUUAUGUUACGCCGUUCGGAUCUGCAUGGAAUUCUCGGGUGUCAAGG", "log2 enrichment": 0.483}
{"data": "Block 4", "target": "Histone acetyltransferase KAT6A, winged helix 1, GST fusion (KAT6A, Homo sapiens, UniProt Q92794, residues 1-85)", "method": "protein binding microarray", "molecule type": "double-stranded DNA, one strand shown", "sample": "in vitro", "tested at": "not given", "notes": "8-mer, flanks averaged, mean of 2 arrays, mostly near background", "baseline": "not given", "direction": "higher = stronger binding", "Residues (chain)": "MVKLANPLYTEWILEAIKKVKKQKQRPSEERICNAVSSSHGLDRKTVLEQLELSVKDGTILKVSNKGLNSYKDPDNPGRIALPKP"}
{"Strand": "AACTTATG", "E-score": -0.312}
{"Strand": "CGGACGAG", "E-score": -0.0119}
{"Strand": "CCCCGCAC", "E-score": 0.228}
{"Strand": "CAGGGTGC", "E-score": -0.0159}
{"Strand": "TCCTCTAA", "E-score": -0.188}
{"Strand": "CAGTGCAC", "E-score": 0.0138}
{"Strand": "TCTAATCA", "E-score": -0.131}
{"Strand": "ACCTTGCG", "E-score": 0.0785}
{"Strand": "CGGTCTAA", "E-score": 0.0562}
{"Strand": "GACGTGGC", "E-score": 0.0156}
{"Strand": "GCTCGACA", "E-score": -0.116}
{"Strand": "GAGCCCAA", "E-score": -0.212}
{"Strand": "GAGTTTAC", "E-score": -0.108}
{"Strand": "AAGCCAGA", "E-score": -0.0736}
{"Strand": "GCCCGGCC", "E-score": 0.318}
{"Strand": "ACTAAGAG", "E-score": -0.114}
{"Strand": "CTTGACAC", "E-score": -0.104}
{"Strand": "CGTGGGAG", "E-score": 0.0674}
{"Strand": "ATTATCCC", "E-score": -0.191}
{"Strand": "AGATCCTC", "E-score": -0.211}
{"Strand": "CTAGGTCC", "E-score": 0.0837}
{"Strand": "ACGGGCCC", "E-score": 0.382}
{"Strand": "ATTGATAC", "E-score": 0.0975}
{"Strand": "AAAACATT", "E-score": -0.0906}
{"Strand": "CGCCCCTC", "E-score": 0.159}
